Assay results gathered from unrelated publications.
± marks the error that the study gave. ≈ marks a conversion by molar mass, not a printed value.
rep macrodomain 1: Replicase polyprotein 1ab, macrodomain 1 (rep, Middle East respiratory syndrome-related coronavirus, UniProt K9N7C7)
rep main protease: Replicase polyprotein 1ab, main protease (rep, Middle East respiratory syndrome-related coronavirus, UniProt K9N7C7)
rep papain-like protease: Replicase polyprotein 1ab, papain-like protease (rep, Middle East respiratory syndrome-related coronavirus, UniProt K9N7C7)
Chain of UniProt P41143 (whole entry, looked up): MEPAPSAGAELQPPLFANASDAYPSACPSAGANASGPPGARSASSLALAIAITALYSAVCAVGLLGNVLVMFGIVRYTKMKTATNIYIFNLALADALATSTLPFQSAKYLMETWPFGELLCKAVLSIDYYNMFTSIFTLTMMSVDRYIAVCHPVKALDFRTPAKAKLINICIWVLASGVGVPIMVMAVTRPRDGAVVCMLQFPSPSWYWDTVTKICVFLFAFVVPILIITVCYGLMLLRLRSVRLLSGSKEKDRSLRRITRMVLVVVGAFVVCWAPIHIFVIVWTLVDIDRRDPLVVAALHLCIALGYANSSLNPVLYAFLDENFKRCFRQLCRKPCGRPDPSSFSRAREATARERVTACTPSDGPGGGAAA
Chain of UniProt P41145 (whole entry, looked up): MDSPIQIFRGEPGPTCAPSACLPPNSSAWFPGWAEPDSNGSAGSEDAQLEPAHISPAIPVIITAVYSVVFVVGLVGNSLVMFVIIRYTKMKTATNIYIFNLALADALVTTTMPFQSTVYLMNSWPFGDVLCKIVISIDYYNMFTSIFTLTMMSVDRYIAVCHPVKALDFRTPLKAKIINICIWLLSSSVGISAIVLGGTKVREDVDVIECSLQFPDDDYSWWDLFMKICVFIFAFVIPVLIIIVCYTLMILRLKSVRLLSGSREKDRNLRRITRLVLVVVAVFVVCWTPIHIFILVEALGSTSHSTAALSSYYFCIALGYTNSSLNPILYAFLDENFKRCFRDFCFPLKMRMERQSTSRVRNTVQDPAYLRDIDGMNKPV

The IC50 of `O=C(c1cccc(Br)c1)N1CCC(c2ccn3ncc(C(=O)N4CCCCC4)c3c2)CC1` is reported as 181 ± 14.4 µM (rep macrodomain 1; inhibitor; MERS-CoV).
For `CSCC[C@@H](C=O)NC(=O)[C@H](CC(C)C)NC(=O)[C@H](CC(C)C)NC(C)=O`, the IC50 was 1.24 µM (rep main protease; enzyme activity, inhibitor).
The Kd of `CC[C@H](C)[C@H](NC(=O)[C@H](CCCCN)NC(=O)[C@H](Cc1c[nH]c2ccccc12)NC(=O)[C@H](CC(C)C)NC(=O)[C@H](CC(C)C)NC(=O)[C@H](CC(=O)O)NC(=O)[C@@H](NC(=O)[C@H](CCCNC(=N)N)NC(=O)[C@H](CCC(=O)O)NC(=O)[C@H](CCCNC(=N)N)NC(=O)[C@H](CC(=O)O)NC(=O)[C@H](CC(C)C)NC(C)=O)[C@@H](C)CC)C(=O)N[C@@H](C)C(=O)N[C@@H](CCCNC(=N)N)C(=O)N[C@@H](C)C(=O)NCC(=O)N[C@@H](C)C(=O)N[C@@H](CCCNC(=N)N)C(=O)N[C@@H](CO)C(=O)N[C@@H](C)C(=O)N[C@H](C(=O)NCC(N)=O)C(C)C` is reported as 4100 µM (membrane reorganisation, tryptophan fluorescence; POPC:POPG:cholesterol SUV; pH 7.5, 25 °C, second transition).
For `CCCCCCCCCCCCCCCC(=O)N[C@@H](CCC(=O)NCCOCCOCCC(=O)NCCOCCOCCC(=O)NCCCC[C@H](NC(=O)[C@H](CC(=O)O)NC(=O)[C@H](CC(C)C)NC(=O)[C@H](Cc1ccc(O)cc1)NC(=O)[C@H](CCCCN)NC(=O)[C@H](CO)NC(=O)[C@H](Cc1ccc(O)cc1)NC(=O)[C@H](CC(=O)O)NC(=O)[C@H](CO)NC(=O)[C@@H](NC(=O)[C@H](Cc1ccccc1)NC(=O)[C@@H](NC(=O)CNC(=O)[C@H](CCC(N)=O)NC(=O)[C@@H](CO)NC(=O)[C@@H](N)Cc1c[nH]cn1)[C@@H](C)O)[C@@H](C)O)C(=O)N[C@@H](CCCNC(=N)N)C(=O)N[C@@H](CCCNC(=N)N)C(=O)N[C@@H](C)C(=O)N[C@@H](CCC(N)=O)C(=O)N[C@@H](CC(=O)O)C(=O)N[C@@H](Cc1ccccc1)C(=O)N[C@H](C(=O)N[C@@H](CCC(N)=O)C(=O)N[C@@H](Cc1c[nH]c2ccccc12)C(=O)N[C@@H](CC(C)C)C(=O)N[C@@H](CC(C)C)C(=O)N[C@@H](CC(N)=O)C(=O)N[C@H](C(=O)NCC(=O)NCC(=O)N1CCC[C@H]1C(=O)N[C@@H](CO)C(=O)N[C@@H](CO)C(=O)NCC(=O)N[C@@H](C)C(=O)N1CCC[C@H]1C(=O)N1CCC[C@H]1C(=O)N1CCC[C@H]1C(=O)N[C@@H](CO)C(N)=O)[C@@H](C)O)C(C)C)C(=O)O`, “serum enzyme activity” read 121 ± 36.1 U/L (item: AST; Sprague-Dawley rat, female; subcutaneous, 100 µg/kg once daily, 14 days).
`O=C[C@H](C[C@@H]1CCNC1=O)NC(=O)[C@H](Cc1ccccc1)NC(=O)/C=C/c1cccc(Br)c1` gave an IC50 of 2.4 µM (rep main protease; enzyme activity, inhibitor).
For `CC(C)C[C@H](NC(=O)[C@H](CO[C@@H]1O[C@H](CO)[C@@H](O[C@@H]2O[C@H](CO)[C@H](O)[C@H](O)[C@H]2O)[C@H](O)[C@H]1O)NC(=O)[C@H](CCCCN)NC(=O)[C@H](CC(C)C)NC(=O)CNC(=O)[C@H](CCCCN)NC(=O)[C@H](CCC(=O)O)NC(=O)[C@H](C)NC(=O)[C@H](CC(C)C)NC(=O)[C@H](CC(N)=O)NC(=O)[C@@H]1CCCN1C(=O)[C@H](CC(C)C)NC(=O)[C@H](Cc1ccccc1)NC(=O)CNC(=O)[C@H](NC(=O)[C@@H](N)Cc1ccc(O)cc1)[C@H](C)O)C(N)=O`, the Ki was 0.012 µM (OPRD1 (Homo sapiens, UniProt P41143); ligand displacement, radioligand; pH 7.5, cell membranes).
For `CC[C@@H](C)[C@@H](NC(=O)[C@@H](CCCCN)NC(=O)[C@@H](CCCCN)NC(=O)[C@@H](CC(C)C)NC(=O)[C@@H](Cc1c[nH]c2ccccc12)NC(=O)CN)C(=O)NCC(=O)N[C@H](CCCCN)C(=O)N[C@H](CCCCN)C(=O)N[C@@H](C(=O)N[C@H](CCC(=O)O)C(=O)N[C@H](CCCNC(=N)N)C(=O)N[C@@H](C(=O)NCC(=O)N[C@H](CCC(N)=O)C(=O)N[C@H](Cc1c[nH]cn1)C(=O)N[C@@H](C(=O)N[C@H](CCCNC(=N)N)C(=O)N[C@H](CC(=O)O)C(=O)N[C@H](C)C(=O)N[C@@H](C(=O)N[C@@H](C(=O)N[C@H](CCC(N)=O)C(=O)N[C@@H](C(=O)N[C@@H](C(=O)NCC(=O)N[C@@H](C(=O)N[C@H](C)C(=O)N[C@H](CCC(N)=O)C(=O)N[C@H](CCC(N)=O)C(=O)N[C@H](C)C(=O)N[C@H](C)C(=O)N[C@H](CC(N)=O)C(=O)N[C@@H](C(=O)N[C@H](C)C(=O)N[C@H](C)C(=O)N[C@@H](C(=O)N[C@H](CC(C)C)C(=O)N[C@H](CCCCN)C(N)=O)[C@H](C)O)C(C)C)C(C)C)[C@H](C)CC)[C@H](C)O)[C@H](C)CC)[C@H](C)O)[C@H](C)O)C(C)C)[C@H](C)CC`, the MIC was 128 µg/mL (≈ 30.5 µM) (Escherichia coli; isolate RKI 131/03, CAMHB).
`C=CC(=O)NC(CC(=C)C)C(=O)N1CC(C(=O)NC(CCSC)C(=O)NC)C(c2cccc(C(F)(F)F)c2)C1` (stereo not drawn) has an IC50 of greater than 100 µM (rep main protease; enzyme activity, inhibitor).
The IC50 of `CCC(C(=O)Nc1ccccc1C)n1c(SCc2ccc(F)cc2)nc2ncccc21` (stereo not drawn) is reported as greater than 100 µM (rep papain-like protease; enzyme activity, inhibitor).
With `O=C[C@H](C[C@@H]1CCNC1=O)NC(=O)[C@H](Cc1ccccc1)NC(=O)/C=C/c1ccc(Cl)cc1F` the IC50 was 1.7 µM (rep main protease; enzyme activity, inhibitor).
For `COc1cc(OC)cc(C(=O)N(CCC(=O)N2CCNCC2)Cc2cccc(Cl)c2)c1`, the IC50 was greater than 300 µM (rep macrodomain 1; inhibitor; MERS-CoV).
`C=CC(=O)N1CCN(c2cc(-c3ccc(C4CCC4)cc3)ncc2C(=O)N[C@H](Cc2ccccc2)C(=O)NC)C(C)C1` (stereo partly drawn) gave an IC50 of greater than 100 µM (rep main protease; enzyme activity, inhibitor).
With `CCC(C(=O)Nc1ccccc1C)n1c(SCc2ccc(F)cc2)nc2cccnc21` (stereo not drawn) the IC50 was greater than 100 µM (rep papain-like protease; enzyme activity, inhibitor).
For `CN(C)c1ccc(/C=C/C(=O)N[C@@H](Cc2ccccc2)C(=O)N[C@H](C=O)C[C@@H]2CCNC2=O)cc1`, the IC50 was 4.7 µM (rep main protease; enzyme activity, inhibitor).
For `CCC(C(=O)Nc1ccc(F)cc1)n1c(SCc2ccc(F)cc2)nc2ncccc21` (stereo not drawn), the IC50 was greater than 100 µM (rep papain-like protease; enzyme activity, inhibitor).
For `C=CC(=O)NC(CC(=C)C)C(=O)N1CC(C(=O)NC(C(=O)NC)C(C)CC)C(c2cccc(C(F)(F)F)c2)C1` (stereo not drawn), the IC50 was greater than 100 µM (rep main protease; enzyme activity, inhibitor).
`CCC(C(=O)Nc1ccccc1)n1cccc2nc(SCc3ccc(F)cc3)nc1-2` (stereo not drawn) has an IC50 of greater than 100 µM (rep papain-like protease; enzyme activity, inhibitor).
With `CC(C)C[C@H](NC(=O)[C@H](CO[C@@H]1O[C@H](CO)[C@@H](O[C@@H]2O[C@H](CO)[C@H](O)[C@H](O)[C@H]2O)[C@H](O)[C@H]1O)NC(=O)[C@H](CCCCN)NC(=O)[C@H](CC(C)C)NC(=O)[C@H](C)NC(=O)[C@H](CCCCN)NC(=O)[C@H](CCC(=O)O)NC(=O)[C@H](C)NC(=O)[C@H](CC(C)C)NC(=O)[C@H](CC(N)=O)NC(=O)[C@@H]1CCCN1C(=O)[C@H](CC(C)C)NC(=O)[C@H](Cc1ccccc1)NC(=O)CNC(=O)[C@H](NC(=O)[C@@H](N)Cc1ccc(O)cc1)[C@H](C)O)C(N)=O` the Ki was 0.015 µM (OPRK1 (Homo sapiens, UniProt P41145); ligand displacement, radioligand; pH 7.5, cell membranes).

Some of these lines once more:
For `CCC(C(=O)Nc1ccc(F)cc1)n1c(SCc2ccc(F)cc2)nc2ncccc21` (stereo not drawn), the IC50 was greater than 100 µM (rep papain-like protease; enzyme activity, inhibitor).
For `C=CC(=O)NC(CC(=C)C)C(=O)N1CC(C(=O)NC(C(=O)NC)C(C)CC)C(c2cccc(C(F)(F)F)c2)C1` (stereo not drawn), the IC50 was greater than 100 µM (rep main protease; enzyme activity, inhibitor).
`CCC(C(=O)Nc1ccccc1)n1cccc2nc(SCc3ccc(F)cc3)nc1-2` (stereo not drawn) has an IC50 of greater than 100 µM (rep papain-like protease; enzyme activity, inhibitor).
